Measured values pooled from the literature.
Protocols differ between the studies behind these lines.
Organism: Klebsiella pneumoniae

| SMILES | assay | system | setting | MIC |
| --- | --- | --- | --- | --- |
| C#CCOc1ccc(CN[C@@]2(C)C[C@H](O[C@H]3[C@H](Oc4c5cc6cc4Oc4ccc(cc4Cl)[C@@H](O)[C@@H](NC(=O)[C@@H](CC(C)C)NC)C(=O)N[C@@H](CC(N)=O)C(=O)N[C@H]6C(=O)N[C@H]4C(=O)N[C@H](C(=O)N[C@H](C(=O)O)c6cc(O)cc(O)c6-c6cc4ccc6O)[C@H](O)c4ccc(c(Cl)c4)O5)O[C@H](CO)[C@@H](O)[C@@H]3O)O[C@@H](C)[C@H]2O)cc1OC | broth microdilution | ATCC 13883, cation-adjusted Mueller-Hinton broth | 18 to 20 h, 37 °C, 0.002% polysorbate 80 | > 128 µg/mL |
| CCCCCCCC(=O)N[C@@H](CCN)C(=O)N[C@H](C(=O)N[C@@H](CCN)C(=O)N[C@H]1CCNC(=O)[C@H]([C@@H](C)O)NC(=O)[C@H](CCN)NC(=O)[C@H](CCN)NC(=O)[C@H](Cc2ccc(Cl)cc2)NC(=O)[C@@H](CC(C)C)NC(=O)[C@H](CCN)NC1=O)[C@@H](C)O | broth microdilution | ATCC 13883, colistin-susceptible |  | 4 to 8 µg/mL |
| N=C(N)NCCC[C@@H]1NC(=O)[C@H](CCCNC(=N)N)NC(=O)[C@@H](CCCNC(=N)N)NC(=O)[C@H](C(c2ccccc2)c2ccccc2)NC(=O)[C@H](C(c2ccccc2)c2ccccc2)NC(=O)[C@H](C(c2ccccc2)c2ccccc2)NC(=O)[C@H](CCCNC(=N)N)NC1=O |  | ATCC BAA1705, KPC-2 carbapenem-resistant |  | > 64 µg/mL |
| CC[C@H](C)[C@H](NC(=O)[C@@H](CCCNC(=N)N)NC(=O)[C@H](CCCNC(=N)N)NC(=O)[C@@H]1CCCN1C(=O)[C@@H]1CCCN1C(=O)[C@H](CCCNC(=N)N)NC(=O)[C@@H]1CCCN1C(=O)[C@H](CCCNC(=N)N)NC(=O)[C@@H]1CCCN1C(=O)[C@H](CC(C)C)NC(=O)[C@H](Cc1ccccc1)NC(=O)[C@@H]1CCCN1C(=O)[C@@H]1CCCN1C(=O)[C@H](CCCCN)NC(=O)[C@H](CC(=O)O)NC(=O)[C@@H](N)C(C)C)C(=O)N[C@@H](Cc1ccc(O)cc1)C(=O)N[C@@H](CC(N)=O)C(=O)N[C@H](CCCNC(=N)N)C(N)=O | broth microdilution | DSM 681 | 18 h, 37 °C, 25% MHB2 | 4 µg/mL |
| CC1(C)[C@H](NC(=O)/C(=N\OCCN)c2nsc(N)n2)C(=O)N1OS(=O)(=O)O | agar dilution | 2146, NDM-1 |  | > 64 µg/mL |
| COc1ccc2ccc(O)c(/C=N/[C@H]3CCCC[C@H]3/N=C/c3c(O)cccc3OC)c2c1 | bacterial growth, broth microdilution | carbapenem-resistant clinical isolate |  | > 40 µM |
| CC1(C)C(NC(=O)C(=NOC2(C(=O)O)CCC2)c2csc(N)n2)C(=O)N1OS(=O)(=O)O (stereo not shown) | agar dilution | 2146, NDM-1 |  | 2 µg/mL |
| CC[C@H](C)[C@H](NC(=O)[C@@H](CCCNC(=N)N)NC(=O)[C@H](CCCNC(=N)N)NC(=O)[C@@H]1CCCN1C(=O)[C@@H]1CCCN1C(=O)[C@H](CCCNC(=N)N)NC(=O)[C@@H]1CCCN1C(=O)[C@H](CCCNC(=N)N)NC(=O)[C@@H]1CCCN1C(=O)[C@H](CC(C)C)NC(=O)[C@H](Cc1ccc(O)cc1)NC(=O)[C@H](Cc1c[nH]cn1)NC(=O)[C@@H]1CCCN1C(=O)[C@H](CCCCN)NC(=O)[C@H](CC(=O)O)NC(=O)[C@@H](N)C(C)C)C(=O)N[C@@H](Cc1ccc(O)cc1)C(=O)N[C@@H](CC(N)=O)C(=O)N[C@H](CCCNC(=N)N)C(N)=O | broth microdilution | DSM 681 | 18 h, 37 °C, 25% MHB2 | 8 µg/mL |
| CN[C@@H]1[C@H](O)[C@H](NC)[C@H]2O[C@]3(O)[C@H](O[C@@H]2[C@H]1O)O[C@H](C)C[C@H]3NC(=O)Cc1ccccc1 | microbial growth, broth dilution | ATCC33495 |  | > 200 µg/mL |
| COc1ccc2ccc(O)c(/C=N/[C@H]3CCCC[C@H]3/N=C/c3cccc(F)c3O)c2c1 | bacterial growth, broth microdilution | carbapenem-resistant clinical isolate |  | > 40 µM |

Repeated from above:
| SMILES | assay | system | setting | MIC |
| --- | --- | --- | --- | --- |
| CC1(C)[C@H](NC(=O)/C(=N\OCCN)c2nsc(N)n2)C(=O)N1OS(=O)(=O)O | agar dilution | 2146, NDM-1 |  | > 64 µg/mL |
